Experimental data from different studies.
Parts stem from different laboratories: compare values within a part only. Several values in a cell are separate wells, animals, samples, runs or records.
Chain of UniProt P35462 (whole entry, looked up): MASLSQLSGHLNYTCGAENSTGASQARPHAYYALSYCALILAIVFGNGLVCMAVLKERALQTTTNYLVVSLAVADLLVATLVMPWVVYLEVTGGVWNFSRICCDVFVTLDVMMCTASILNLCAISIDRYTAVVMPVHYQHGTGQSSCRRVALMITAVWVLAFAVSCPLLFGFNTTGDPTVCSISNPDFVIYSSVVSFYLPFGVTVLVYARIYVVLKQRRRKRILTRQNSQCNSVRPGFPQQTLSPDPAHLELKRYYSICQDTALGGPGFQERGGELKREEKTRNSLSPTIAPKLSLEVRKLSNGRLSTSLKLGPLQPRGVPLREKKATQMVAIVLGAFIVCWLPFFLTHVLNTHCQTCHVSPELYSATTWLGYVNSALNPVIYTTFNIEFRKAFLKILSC

Series 1
Target: Hepatocyte nuclear factor 3-alpha (Foxa1, Mus musculus, UniProt P35582, residues 1-468, full length assumed)
Method: EMSA with sequencing
Form: double-stranded DNA, one strand shown
Medium: in vitro
Tested at: 10 and 20 nM
Setting: whole designed probe, mean of two concentrations, ends assumed
Baseline: negative control set to 0
Direction: higher = stronger binding
All sequences stand within: GTGAGCGGTGCCCATTGATGGGGAAC … TTTCACTGGGATCGTGGGGAC
Residues (chain): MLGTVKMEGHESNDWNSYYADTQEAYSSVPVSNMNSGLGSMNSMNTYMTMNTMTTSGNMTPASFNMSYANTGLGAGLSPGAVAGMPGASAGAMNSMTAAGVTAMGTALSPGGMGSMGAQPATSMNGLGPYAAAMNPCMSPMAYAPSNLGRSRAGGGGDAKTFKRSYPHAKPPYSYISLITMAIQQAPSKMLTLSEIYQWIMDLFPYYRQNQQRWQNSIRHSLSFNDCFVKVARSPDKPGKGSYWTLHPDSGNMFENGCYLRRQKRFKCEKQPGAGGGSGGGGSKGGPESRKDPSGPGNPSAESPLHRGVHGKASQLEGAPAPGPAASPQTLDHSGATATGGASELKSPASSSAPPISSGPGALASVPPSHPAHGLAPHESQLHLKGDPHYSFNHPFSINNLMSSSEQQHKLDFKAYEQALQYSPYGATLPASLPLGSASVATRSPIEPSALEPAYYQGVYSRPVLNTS
Sequence | normalised bound fraction
GGAAGCACTAGAGGTAATATTTCCTTACTGGACCCCAGTCCTAAATTACCTACTTTTATCCAAATTAGGCTTATTTTAAGATATTTCAAAAAGTAAACATGTAAAATGGTGAAATACACATGTTATGTCTGATGTTAGGCTTTACCTGGATTTTTAATCCCGTAAGACAAGAAATGTGAATATCAGAATGACT | 0.24 ratio
CAATGGGGTAGGTCAGCCCCAGTGAACTCTCAAATGACCACTGAAGGAGGAAGTGAGTGCAGAGTGTGATACCACTCACATCCCAGCCCAGACTGTTTGCTCAGTTCTTCCTGCACTGGGAGGAGTGTTGCAATTCGAGATAACACCCCTTCTCATGGCTTCAGGCATCACCTATCTCCTCTAGGCTGCGCTC | 0.177 ratio
ATCTTCCCCCTCTTCCTTGCCCCACCAGCTCACCTACGGGGGTTATTTGCAGATAGGAAAATAAATAAAGCCGGCATTCGTTAACCCTCTTCACGCGCATACTGCTGTTTGCTCTGCATCTAACATGGTCCTTACGCGAGGCGTGGCTCCGGGAGAGCAAAGCACCGTGTCAGGCGCATGATCCGGGCTCGCC | 0.35 ratio
ATAAAAGTCAAGGTGACTTCTGTTTTCTATACAAACAGAAATCTCCTTCATTTTTTATTCTTCTTAGACCAGGGGTATGTGTGTGTGAACTCCCTGTTTACATTGTACTAATAGCAATAAGCTAGGGGTACGAAAAGTAGTAATACAAGGTAGAAAGTGAGAGTAACTAGGATGTGACTTCTCTGCTGTGTAT | 0.378 ratio
ATACACTTCATTATGTCACTGTTGTTTGGTTGTGTTCTAGGCGAGAAACCACCTTTGGAAGGTTCACAGCAGCCCCAATTTAGCACTCTGCCATGTTTACATTGTCAGGCTGCATTGCCACTTCGGCGAACCATAGCTTTTTATCATCCCAGCCAGGGTGGCTGTGGGCAGCTTCTGCCTGGCAGGTAATAAG | 0.394 ratio
CCCTCATCCTGGGTGTCGGGGTGGGAGGTGTTCTCATCATGAATGGGAGGCGTACCCAGATCCAGCTCTGCCTTTTTTTAACCAAACCAGAGTGTAAACAAATGGCTGTTAATCGACATAGTGACTCACCAGCAAGATATGATACATGCCAGGAGAGAAAAAGAAAGTGCTGATGGAAAAATAATCTCATTAG | 0.368 ratio
ATGAAAGCAGCCCAGACGAGCTGTGAGCAGCTGGGCTGGATAATTGTGAAGGATTCATGCTTGTTGCTGTTACCCCCAGTGTTTGCAGTGGGTTGTTTGCTTTGACTTTTGTTGAACTGTTGACAAAAGCATTAGATACAAATGGGAACAAATAAAGTGGTGAGATGCCAGGAGGGCTTGGCAGGAGTAGTGG | 0.36 ratio
CCAGGGACAATGTGCAGTTGTTGGTCCTGGGTCTTTGACAGACTCCAGGTCAAAGGCAAGACACCGTGAGAAGGGAAAGGATCAAGTCTGTGAGCAATCTCCATCAGCCTTGCAATTTGATGGTGGCCTCAAGGAGACATTGGGCGTGTGTTTAAACAAGCAAGGAAGGCAGCTGTACAAGTGCCCTAATCTG | 0.157 ratio

Series 2
Target: RING finger protein unkempt homolog, zinc fingers 1-6, GST-SBP tag (UNK, Homo sapiens, UniProt Q9C0B0, residues 30-357)
Chain of UniProt Q9C0B0 (30-357, looked up): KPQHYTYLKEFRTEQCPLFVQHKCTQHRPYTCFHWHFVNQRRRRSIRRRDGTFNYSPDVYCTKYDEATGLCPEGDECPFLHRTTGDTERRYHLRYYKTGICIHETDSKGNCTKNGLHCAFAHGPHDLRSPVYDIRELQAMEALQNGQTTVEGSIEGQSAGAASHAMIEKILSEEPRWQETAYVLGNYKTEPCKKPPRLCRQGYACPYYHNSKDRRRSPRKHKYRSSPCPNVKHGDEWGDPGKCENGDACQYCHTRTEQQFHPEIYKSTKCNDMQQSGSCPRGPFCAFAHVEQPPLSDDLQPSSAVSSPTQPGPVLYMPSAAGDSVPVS
Method: RNA Bind-n-Seq
Form: RNA
Medium: in vitro
Tested at: not given
Setting: RNA with constant flanks, human-mouse chimeric sites, ends assumed
Baseline: input RNA pool
Direction: higher = stronger binding
All sequences stand within: GGGAGUUCUACAGUCCGACGAUC … CAACAGAGGAUUGAGCAUCA
Sequence | bound/input enrichment [ratio]
CUGGCCUGGCCCUCCCCAGGGGCCUCCUUUCGUAUAGUAACUGUCAGUGCAUCAGAUACUUUCAGCUGCAACUCCCUGCAGGGUGGGGCACCCAUUUCAGGCAGAAGGUUUUGGUACCCU | 0.445
UCAUUUUGCUCGGGUUAUUCUUUCCUUUAGGAAAAGCCUAAAGAUUAGGUUGUAAGAAAAACAGAAGCCAUGUUUCGAAGACCUGUGUUACAGGUACUUCGUCAGUUUGUAAGACAUGAG | 0.701
GAGUCGAGCAAACUUGAAACAAUUCGUUUUACAAAAACCUCAGUGUUCACUUGCUUGGCGAUAGCAUUGGGGUUUUAUAGGUUCUGGGGAAGUAGUAGACGAUGAUGCUGCCGCUGCUGC | 1.13
GGACCAUAAUCAUGGAGGACAUAAUGCAGCUCCCCAAAGCGCGCGUCAACGCCAGCAUGUUACCACAAUUCAUCGACCGGCCCGUGUGCUUCGUGGGGAAGCUGGAAAAGAUUCAUCCCA | 0.108
UACAUCACCAAUGUCCUACAAAAUCCUGACUUGGCUCUGAGAAUGGCUGUGCGGAACAACUUAGCUGGUGCUGAAGAACUCUUUGCCCGGAAAUUUAAUGCUCUCUUUGCCCAGGGAAAC | 0.244
GUAUUUGUCCCAUUUUUACUCGUGUUUUUAAGUGUAUUUUUAUAAGAUACAUGUAUUUACAAUUGAGCUUUUGUUACAUAAUGCUGAAAUGCUACUGGAGAUUAUGAAAAAUGUUUCAAU | 0.143
AGAGCCCAGGAUGUUGAUGCUACAAAUCCAAAUUACGAAAUUAUGUGUAUGAUCAGAGACUUCAGAGGAAGUUUGGAUUACAGACCCCUAACAACAGCAGAUCCUAUUGAUGAACAUAGG | 0.457
GAAUCCUACUCAGGCGGUCCCACAACAACCAAGCUCACAGCAGCAGCUCCAUAGUCACAGUAGGGUAGUUUUGGGGCUCUGUGGCCAGGGUUUUAUUCACAUGCAGGUUUGGAAAAUGUA | 0.404

Single results of other studies
ABL1: Tyrosine-protein kinase ABL1 (ABL1, Homo sapiens, UniProt P00519)
Chain of UniProt P00519 (whole entry, looked up): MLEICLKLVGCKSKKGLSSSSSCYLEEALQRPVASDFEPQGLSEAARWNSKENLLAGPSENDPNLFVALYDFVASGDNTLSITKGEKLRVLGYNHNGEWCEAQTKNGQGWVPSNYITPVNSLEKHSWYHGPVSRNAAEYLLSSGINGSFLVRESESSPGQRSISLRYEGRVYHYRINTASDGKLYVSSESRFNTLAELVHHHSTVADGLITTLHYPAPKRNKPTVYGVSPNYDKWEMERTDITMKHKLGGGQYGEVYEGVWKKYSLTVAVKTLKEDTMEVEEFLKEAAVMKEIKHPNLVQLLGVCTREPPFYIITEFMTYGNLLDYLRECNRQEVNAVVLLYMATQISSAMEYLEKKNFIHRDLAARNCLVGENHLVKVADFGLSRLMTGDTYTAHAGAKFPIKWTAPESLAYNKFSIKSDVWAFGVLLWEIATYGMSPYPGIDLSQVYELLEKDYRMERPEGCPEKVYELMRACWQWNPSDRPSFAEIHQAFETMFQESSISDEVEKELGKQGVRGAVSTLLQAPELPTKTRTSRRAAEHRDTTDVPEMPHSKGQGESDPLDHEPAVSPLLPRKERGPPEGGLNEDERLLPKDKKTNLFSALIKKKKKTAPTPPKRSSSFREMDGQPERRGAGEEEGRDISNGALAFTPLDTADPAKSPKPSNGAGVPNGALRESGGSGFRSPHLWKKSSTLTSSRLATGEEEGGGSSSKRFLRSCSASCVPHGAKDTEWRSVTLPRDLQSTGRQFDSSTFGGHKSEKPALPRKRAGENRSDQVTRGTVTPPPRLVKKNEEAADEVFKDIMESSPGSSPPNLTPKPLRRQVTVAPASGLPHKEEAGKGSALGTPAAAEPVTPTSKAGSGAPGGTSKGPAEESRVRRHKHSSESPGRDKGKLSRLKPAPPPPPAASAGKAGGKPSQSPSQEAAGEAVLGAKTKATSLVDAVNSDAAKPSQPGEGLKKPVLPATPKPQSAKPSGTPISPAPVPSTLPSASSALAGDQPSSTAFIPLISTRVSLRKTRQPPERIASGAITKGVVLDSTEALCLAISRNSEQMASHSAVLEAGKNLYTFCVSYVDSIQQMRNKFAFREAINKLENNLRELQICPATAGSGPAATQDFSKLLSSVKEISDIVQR
Structure (SMILES) | target or system | assay | test system | conditions | how to read | measurement | result
O=C(NS(=O)(=O)c1ccc(NCC2CCOCC2)c([N+](=O)[O-])c1)c1ccc(N2CCN(Cc3ccc(C(F)(F)F)cc3-c3ccc(Cl)cc3)CC2)cc1Oc1cnc2[nH]ccc2c1 | DRD3 (Homo sapiens, UniProt P35462) | binding, radioligand binding |  |  |  | Ki | > 10 µM
Cc1nc2cc3nc(-c4cccs4)cnc3cc2n1C | ABL1 | enzyme activity, inhibitor |  | 0.5 µM | baseline: control | remaining activity | 80.4%
C[C@H](NC(=O)c1cnc2n1[C@](C)(Cc1ccc(C#N)cc1)C(=O)N2c1cc(Cl)c(F)c(Cl)c1)C(=O)NC1(c2ccccn2)CC1 | normal organoid sample H | CellTiter-Glo | human | 1 µM, 4 days | baseline: DMSO | viability | 106%
COc1cc2ncnc(Nc3ccc(O)c(Br)c3)c2cc1OC | ABL1 | enzyme activity, inhibitor |  | 0.5 µM | baseline: control | remaining activity | 79.4%
O=C(O)[C@@H]1[C@@H](Cn2nnc3ccccc3c2=O)CC[C@H]1C(=O)c1ccc(OCCC2CCOCC2)cc1 | normal organoid sample H | CellTiter-Glo | human | 1 µM, 4 days | baseline: DMSO | viability | 146% and 91.7%

A few entries again (series 2):
Sequence | bound/input enrichment [ratio]
AGAGCCCAGGAUGUUGAUGCUACAAAUCCAAAUUACGAAAUUAUGUGUAUGAUCAGAGACUUCAGAGGAAGUUUGGAUUACAGACCCCUAACAACAGCAGAUCCUAUUGAUGAACAUAGG | 0.457
CUGGCCUGGCCCUCCCCAGGGGCCUCCUUUCGUAUAGUAACUGUCAGUGCAUCAGAUACUUUCAGCUGCAACUCCCUGCAGGGUGGGGCACCCAUUUCAGGCAGAAGGUUUUGGUACCCU | 0.445
